Published values pooled from the literature.
Parts stem from different laboratories: compare values within a part only. Changes are numbered by the printed parent chain.

Set 1
Target: Fragile X messenger ribonucleoprotein 1, C-terminal low-complexity region (Fmr1, Mus musculus, UniProt P35922)
Method: RNA Bind-n-Seq
Form: RNA
Medium: in vitro
Concentration: 200 nM
Setting: whole 134-nt RNA, ends assumed
Added: 150 mM LiCl
Reference: input library
Reading: higher = stronger binding
Library: 7-deaza-guanosine replaces G
Sequence | log2 enrichment
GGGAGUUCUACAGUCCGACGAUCUAACUUUAGAGGAGGAUCUGAUGGAUAUGGCAGUGGACGUGGUUUUGGGGAUGGCUAUAAUGGGUAUGGAGGAGGACCUGGAGGUGGCAAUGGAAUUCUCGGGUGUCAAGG | 0.528
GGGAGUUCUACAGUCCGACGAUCUCAAGUCCUGUGCUACACAUCGUAUGUACCGAAUCGGGGUUGGGUUGGGGUUGGGAAAGUAUUAUGUUACGCCGUUCGGAUCUGCACUUCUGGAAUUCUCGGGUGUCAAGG | -1.03
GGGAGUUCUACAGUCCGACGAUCUGGCCCUGGUGGCAUGCGGGGAGGAAGAGGUGGCCUCAUGGAUCGUGGUGGUCCCGGUGGAAUGUUCAGAGGUGCCCGUGGUGGAGACAGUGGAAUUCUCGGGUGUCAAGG | -0.366
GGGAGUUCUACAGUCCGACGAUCUGGCCCUGGUGGCAUGCGGGGAGGAAGAGGUGGCCUCAUGGAUCGGGGUGGUCCCGGUGGAAUGUUCAGAGGUGGCCGUGGUGGAGACAGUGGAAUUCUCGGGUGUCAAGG | -0.692
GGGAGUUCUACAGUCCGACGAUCACCAUGCAGGUGGGCAUCUUUGGGAAGUGGGGCAAGGGGGGGAUAGGGAGGGGGGUAACACUUUGGGAACAGGUGGUCCCAGGGCGUUUCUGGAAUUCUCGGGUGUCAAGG | 0.796
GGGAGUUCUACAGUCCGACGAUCUGUUCCUGUUGAUGAAAAUCUUUUCACUGGAGAGGAUUUGGAUGAACUAGAAGAAGAAUUAAAUACACUUGAUUUAGAAGAAUGACACCAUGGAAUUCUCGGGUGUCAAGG | -1.29
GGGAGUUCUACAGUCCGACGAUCGUCCUGUGCUACACAUCGUAUGUACCGAAUCGGGGUUUUUGGGGAGGGGAAAAAGGGGAAAGUAUUAUGUUACGCCGUUCGGAUCUGCACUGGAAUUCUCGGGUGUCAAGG | 0.0202

Set 2
Target: Interferon regulatory factor 5, full length, phosphomimetic (IRF5, Homo sapiens, UniProt Q13568-2, residues 1-514, K96S/S451D/S453D/S456D/S462D)
Method: protein-binding microarray
Form: double-stranded DNA, one strand shown
Medium: in vitro
Concentration: 250 nM
Setting: 60-bp whole probe
Added: salmon DNA 0.4 mg/ml
Reference: random background probes
Reading: higher = stronger binding
All sequences stand within: GCCTAGCAC … GTCTTGATTCGCTTGACGCTGCTG
Sequence | log fluorescence
GACGCTTTCAGTTCCGAGACGTGCTAG | 4.03 z-score
TTAGATATCAGACAGGATTAGTGCTAG | 0.138 z-score
TTAGCTTTCGGTTTCGGTTAGTGCTAG | 12.3 z-score
TCATTTTTTTGTATTTTACTGTGCTAG | 1.54 z-score
TCATTCTTTTTTTTCTTACTGTGCTAG | 1.44 z-score
GACGAACTGGGGTATCTAGACGTGCTA | -0.297 z-score
ATTTTTATCAAATGTGGGATTGTGCTA | 0.768 z-score
TTTGGTATCGGTTTCGGTTAGTGCTAG | 11.6 z-score
GACGGTACCGACTTTCGGGACGTGCTA | 5.17 z-score
TTAGGACTGAGGTTTCGGTTAGTGCTA | 6.99 z-score
TCAACTTTATGTAGGAAACTGTGCTAG | 0.148 z-score
CTCATGTTACATTTATATCTGTGCTAG | 0.692 z-score
GACGGTTTCGACACTGGGGATGTGCTA | 4.68 z-score
TCATCCTCCTCTCTCTTACTGTGCTAG | 0.429 z-score
GACGGTATAGGGTTTCGGGACGTGCTA | 1.37 z-score
GACGGACTGGACACTGGGAACGTGCTA | -0.66 z-score
TTGTTTTTTTCTATATGCAAGTGCTAG | 2.28 z-score
GCCGGTATCCTTTTCCTGACGTGCTAG | 0.398 z-score
ATAGGACTGGACTTTCGGTTAGTGCTA | 9.61 z-score
GACGATATAGGGTTTCGAGACGTGCTA | 1.45 z-score

Set 3
Target: Sal-like protein 4, full length isoform B (SALL4, Homo sapiens, UniProt Q9UJQ4-2, residues 1-616)
Method: universal PBM
Form: double-stranded DNA, one strand shown
Medium: in vitro
Concentration: not given
Setting: 8-mer, flanks averaged, mean of replicates
Reading: higher = stronger binding
Residues (chain): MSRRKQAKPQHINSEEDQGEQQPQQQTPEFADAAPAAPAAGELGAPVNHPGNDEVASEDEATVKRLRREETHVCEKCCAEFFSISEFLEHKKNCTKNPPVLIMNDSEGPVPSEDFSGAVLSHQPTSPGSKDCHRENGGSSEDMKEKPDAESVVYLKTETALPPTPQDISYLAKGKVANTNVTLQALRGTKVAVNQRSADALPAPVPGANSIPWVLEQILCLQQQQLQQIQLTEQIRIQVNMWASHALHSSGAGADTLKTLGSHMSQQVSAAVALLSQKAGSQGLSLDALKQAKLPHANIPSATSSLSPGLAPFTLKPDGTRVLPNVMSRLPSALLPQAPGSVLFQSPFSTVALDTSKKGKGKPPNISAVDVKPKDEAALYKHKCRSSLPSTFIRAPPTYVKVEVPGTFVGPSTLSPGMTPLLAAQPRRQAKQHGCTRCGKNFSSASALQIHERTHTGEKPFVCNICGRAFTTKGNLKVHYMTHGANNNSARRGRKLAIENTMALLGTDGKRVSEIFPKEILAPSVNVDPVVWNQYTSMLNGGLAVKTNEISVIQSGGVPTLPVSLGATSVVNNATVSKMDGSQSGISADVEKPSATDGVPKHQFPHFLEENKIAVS
Sequence | E-score
AAGCCGCT | -0.238
GCAACGGA | -0.079
CCCGTCTC | -0.321
AGACAGAG | -0.0283
AAGGCGCC | -0.263
GAGGACAC | -0.135
GGCCTAAC | -0.15
AGCAAGTC | -0.132
AACTGCCG | -0.128
ATAACGCA | 0.251
CATCATGG | -0.167
CGGCGTTA | -0.198

Set 4
Target: CCNB2, cyclin fold, Cln2 fusion (human)
Method: yeast growth competition, sequencing
Medium: yeast
Setting: weak parent motif
Reference: not given
Reading: higher = stronger binding
Starting sequence: KIF20B docking peptide (human); KRAKRKLYTSEIS
Change | normalised enrichment score
E11A | 0.997
K6A | 0.813
T9A | 0.589
S13A | 0.865
Y8A | 0.462
R5A | 0.0128

Further values, each from its own experiment
Substance | target | assay | test system | setting | scale | measurement | result
PhoQ, residues 284 288 289 292 302 303 NLGVHL | PhoP, residues 12 14 15 18 19 TPLRH (Escherichia coli, UniProt P23836) | Sort-seq, refers to: YFP reporter | E. coli | PhoQ-PhoP variant library, added: 10 µM Mg2+ | reference: high Mg2+ state, higher = stronger signaling | fold induction | 12.5

For quick reference, copied from above (set 4):
Change | normalised enrichment score
R5A | 0.0128
Y8A | 0.462
S13A | 0.865
T9A | 0.589
